Assay results pooled from the literature.
Parts stem from different laboratories: compare values within a part only.

Set 1
Target: PABPC1L2, full length, GST fusion (mouse, UniProt A0ABA7IW68)
Technique: RNAcompete
Molecule type: RNA
Matrix: in vitro
Tested at: 20 nM
Notes: 7-mer, probes averaged, single round
Relative to: mean of 7-mers
Direction: higher = stronger binding
Residues (chain): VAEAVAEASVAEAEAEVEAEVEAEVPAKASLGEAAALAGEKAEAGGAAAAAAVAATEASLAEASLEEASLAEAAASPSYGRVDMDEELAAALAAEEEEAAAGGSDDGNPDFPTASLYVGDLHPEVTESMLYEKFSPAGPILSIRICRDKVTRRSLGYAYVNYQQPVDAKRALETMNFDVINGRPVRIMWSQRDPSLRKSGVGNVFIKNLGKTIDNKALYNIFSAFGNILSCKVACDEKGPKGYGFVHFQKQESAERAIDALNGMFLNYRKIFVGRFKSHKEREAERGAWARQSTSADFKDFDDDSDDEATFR
`GGAAGAA` has a 7-mer Z-score of 0.548.
With `UAUGGCU` the 7-mer Z-score was 0.0152.
`UUUGCCC` has a 7-mer Z-score of -0.554.
With `GCAGCAC` the 7-mer Z-score was -0.0826.
The 7-mer Z-score of `GGCGCGU` is reported as -0.0953.
With `ACGACAC` the 7-mer Z-score was -0.00108.
For `CACGGAG`, the 7-mer Z-score was 0.227.
With `UCACGAG` the 7-mer Z-score was -0.206.
For `CGAUGGG`, the 7-mer Z-score was 0.119.
For `GUAAAUA`, the 7-mer Z-score was 1.02.
With `CUACUUC` the 7-mer Z-score was -0.26.
The 7-mer Z-score of `UCAGGAA` is reported as 0.109.
`UCCAGCU` has a 7-mer Z-score of -0.327.
With `UCGCGGG` the 7-mer Z-score was 0.0152.
`ACGCUAA` gave a 7-mer Z-score of -0.119.
`GGUCUCA` gave a 7-mer Z-score of -0.108.
With `GGAUGUU` the 7-mer Z-score was -0.0718.

Set 2
Target: RNA binding protein fox-1 homolog 2, RRM domain, GST-SBP tag (RBFOX2, Homo sapiens, UniProt O43251-10, residues 100-194)
Technique: RNA Bind-n-Seq
Molecule type: RNA
Matrix: in vitro
Tested at: 365 nM
Notes: natural RNA segment, single round, ends assumed
Relative to: no-protein control
Direction: higher = stronger binding
Construct (chain): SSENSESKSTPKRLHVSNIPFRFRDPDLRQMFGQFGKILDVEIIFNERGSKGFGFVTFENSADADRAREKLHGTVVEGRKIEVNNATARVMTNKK
`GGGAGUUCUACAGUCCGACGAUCUUUAAGAAUGCUCAGAAGAAAUUGAUAAUCUGUGUGAAUAUGUUUUAGAUGUUUAUAUACCUUUUGAAGAGACCCAGUAGCCCAUAGCACAAAUCUUGUGGAAAUCCGAUUGGAAUUCUCGGGUGCCAA`: “RBNS enrichment (R)” 10.2.
`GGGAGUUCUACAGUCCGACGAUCUUGUUUAUUUUUGCUUGUUAUGUUAAGCAAAAAUCCUGCAAUGAAAGGUACUAUAUUUGCCAGACUCUAGACAUAAGAUAUUGUACAUAAAGAGAAUUUUUUUUGCCUUUUGGAAUUCUCGGGUGCCAA` — result for “RBNS enrichment (R)”: 1.78.
For `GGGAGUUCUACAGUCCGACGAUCAAAGCAGUAAGUGGUGCAGUAAAAUACUUAAGUUAUUCAAAGAAUGUUAUCUUUCUUGCAAGAGUAAUUUAAGCACAUGGGAAAGAUUCUAGACUUUUUGUUUCUUGCAAUGGAAUUCUCGGGUGCCAA`, “RBNS enrichment (R)” read 0.595.
`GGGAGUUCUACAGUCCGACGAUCCGCCCAAAGCGAACAUCACGUCCGAUGAGCUUGAGGACCUUCGGCUGUGCCAUACUGAGGGGUGGUUGUGUUUGCAGGAGGUAGCCACUCUAGAGGCCGCGGCAGAAGGAUGGAAUUCUCGGGUGCCAA`: “RBNS enrichment (R)” 0.956.
Under “RBNS enrichment (R)”, `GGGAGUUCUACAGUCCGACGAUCGCCCAUUGCAGCACUGUGCUGGCCAGACUUCAGCUGCCUUGGGAACUGAAGCCCUGCCACUGUUGCUAGUCAGGGGCUUGGUUCUCCCACUUACACUGUUGACAUCUAUUUGGAAUUCUCGGGUGCCAA` is recorded as 1.11.
`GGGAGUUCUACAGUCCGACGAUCUUGCUAAUUCCUGUCUGGUUCCUCUCUGGCAGAGCUUGGGAGGCACAAGAGAUCCUUUUCUCUUUCCAAACAGCUUUGCACAAUCUAGAAAUUCAGUGGGUUUUUUUUUUUGGAAUUCUCGGGUGCCAA` — result for “RBNS enrichment (R)”: 0.391.
`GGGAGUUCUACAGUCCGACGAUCAACUUUGUACUGUACGUCACAGUGAUGAGUGUGACAGCUCAGCUCUUUGAUUUCAUAGUGAGUUUUCUAAAAGACCAGCCGACUAGCUUUUGCAGACUUUGAACAGAACUUGGAAUUCUCGGGUGCCAA` — result for “RBNS enrichment (R)”: 0.306.
For `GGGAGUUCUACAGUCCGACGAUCACUAAUUUUGAAAGUCAUGUAACUUCUUUUGAUAUCUGGGCAAAAGUAACCAUAUGCUAUAAGCAUUUGAAUAUGUUUAAUUUUAUCAUAAUAGCAUCUGUAAAAGUACAUGGAAUUCUCGGGUGCCAA`, “RBNS enrichment (R)” read 0.592.
Under “RBNS enrichment (R)”, `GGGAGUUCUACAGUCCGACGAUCUGCCCCCUUUUUACAACUGAAUUCAUCUAGCAUUUUCAUAUGGUGGAUUUAAACUGCUUAAAAAAGAAAAUGUGACCGGCUCUCCUGCUUGGGUCUCAGGGGAGAUAUGCUGGAAUUCUCGGGUGCCAA` is recorded as 4.58.
Under “RBNS enrichment (R)”, `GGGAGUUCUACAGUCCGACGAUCAACAUCUUUGUACAUUUAAGUCUGUAUUAUAAUAAGCAAAAAGAUUGUGUGUAUGUAUGUUUAAUAUAACAUGACAGGCACGAGGACGCCUGCCUUUUAAGAGGCAGUUCUGGAAUUCUCGGGUGCCAA` is recorded as 0.661.
Under “RBNS enrichment (R)”, `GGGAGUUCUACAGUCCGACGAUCAGAGUGGAACCCGCUGCAAAAUCCCCAGCCUUAAUUCUUGCUUCAGGACCCAGACCGGUGUCUUGCUCUAGGGCAACCCAGGGCAGAGGGGCCAGGUCUGCCCAGCGUUUUGGAAUUCUCGGGUGCCAA` is recorded as 0.199.
`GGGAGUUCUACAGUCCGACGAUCAAACUUCCAUAAGGGGCAGCAGUUGAGGUUGGGUAGUGCUGGGCCCAGCUGAGCUGGCCUGGGAAAUGGAGCCCACUGUCUGUGUCUCUUUUCUCCCACCUCAUCCUUCUUGGAAUUCUCGGGUGCCAA`: “RBNS enrichment (R)” 0.45.

Set 3
Target: Ras GTPase-activating protein-binding protein 1, full length (G3BP1, Homo sapiens, UniProt Q13283)
Sequence of UniProt Q13283 (whole entry, looked up): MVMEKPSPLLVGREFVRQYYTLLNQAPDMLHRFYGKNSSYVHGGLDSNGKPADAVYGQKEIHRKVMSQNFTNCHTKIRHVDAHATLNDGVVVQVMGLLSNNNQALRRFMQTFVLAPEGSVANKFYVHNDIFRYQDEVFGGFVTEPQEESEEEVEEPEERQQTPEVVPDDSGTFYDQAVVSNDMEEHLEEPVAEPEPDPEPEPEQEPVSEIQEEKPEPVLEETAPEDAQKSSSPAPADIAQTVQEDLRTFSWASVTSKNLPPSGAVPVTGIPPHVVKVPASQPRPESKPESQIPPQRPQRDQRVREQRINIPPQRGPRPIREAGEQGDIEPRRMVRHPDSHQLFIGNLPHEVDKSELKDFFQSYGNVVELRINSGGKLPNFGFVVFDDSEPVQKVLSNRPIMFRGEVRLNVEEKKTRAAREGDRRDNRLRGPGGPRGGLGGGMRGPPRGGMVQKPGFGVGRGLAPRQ
Technique: RNA Bind-n-Seq
Molecule type: RNA
Matrix: in vitro
Tested at: 200 nM
Notes: whole 134-nt RNA, ends assumed
With: 150 mM KCl
Relative to: input library
Direction: higher = stronger binding
`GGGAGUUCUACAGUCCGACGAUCUCAAGUCCUGUGCUACACAUCGUAUGUACCGAAUCGGAAAAAAAGGUGGUUUGGAAAGUAUUAUGUUACGCCGUUCGGAUCUGCACUUCCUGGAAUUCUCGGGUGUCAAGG` gave a log2 enrichment of -1.16.
`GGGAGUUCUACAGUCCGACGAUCCCUCAAGUCCUGUGCUACACAUCGUAUGUACCGAAUCGGGGAGGGAGGGGAGGAAAGUAUUAUGUUACGCCGUUCGGAUCUGCACUUCCAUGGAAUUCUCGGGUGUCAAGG` has a log2 enrichment of 1.07.
The log2 enrichment of `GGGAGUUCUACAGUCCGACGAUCCACAGACAACACGCACCCACACAGACACAGAGGGAAGGGGUUGGGAUGGGGACAGGGUGCACAGCAGAAAGGGGUAGGACCCCAGCCCCUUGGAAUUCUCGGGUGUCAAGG` is reported as 1.86.
For `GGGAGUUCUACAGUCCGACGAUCUGGCCCUGGUGGUAUGCGGGGAGGAAGAGGUGGCCUCAUGGAUCGUGGUGGUCCCGGUGGAAUGUUCAGAGGUGGCCGUGGUGGAGACAGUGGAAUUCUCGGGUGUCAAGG`, the log2 enrichment was 0.124.
`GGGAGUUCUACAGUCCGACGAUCCUCAAGUCCUGUGCUACACAUCGUAUGUACCGAAUCGGAAAAAGGUGGUUUGGAAAGUAUUAUGUUACGCCGUUCGGAUCUGCACUUCCAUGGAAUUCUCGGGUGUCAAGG` has a log2 enrichment of -0.773.
With `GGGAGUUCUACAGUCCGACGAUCCAAGUCCUGUGCUACACAUCGUAUGUACCGAAUCGGAAAGGAAAGGAAAAAAAGGAAAGUAUUAUGUUACGCCGUUCGGAUCUGCACUUCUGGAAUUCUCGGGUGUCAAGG` the log2 enrichment was -0.953.
`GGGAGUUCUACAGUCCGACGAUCUGGCCCUGGUGGCAUGCGGGGAGGAAGAGGUGGCCUCAUGGAUCGUGGUGGUCCCGGUGGAAUGUUCAGAGGUGGCCGUGGUGGAGACGGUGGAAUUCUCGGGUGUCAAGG` gave a log2 enrichment of 0.243.
With `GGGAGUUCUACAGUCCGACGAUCCAAAAUACCAAGGGAUUUAUAUGAGGAUGAGUUGGUGCCCCUUUUUGAGAAGGCCGGACCCAUUUGGGAUCUACGUCUUAUGAUGGAUCCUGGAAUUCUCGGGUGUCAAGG` the log2 enrichment was -0.181.
For `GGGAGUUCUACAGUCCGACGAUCUUGCGAAAAGGACCAAUUCCAGUGCCGGAACGAGCGCUGCAUCCCCUCUGUGUGGAGAUGCGACGAGGACGAUGACUGCUUAGACCACAGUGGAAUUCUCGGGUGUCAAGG`, the log2 enrichment was -0.242.
`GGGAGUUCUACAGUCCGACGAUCAAGUCCUGUGCUACACAUCGUAUGUACCGAAUCGGAAAAAGGUUUGGAAAAAAAGGAAAGUAUUAUGUUACGCCGUUCGGAUCUGCACUUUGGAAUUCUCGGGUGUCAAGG` has a log2 enrichment of -1.52.

Set 4
Target: Histone acetyltransferase KAT6A, winged helix 1, GST fusion (KAT6A, Homo sapiens, UniProt Q92794, residues 1-85)
Technique: protein binding microarray
Molecule type: double-stranded DNA, one strand shown
Matrix: in vitro
Tested at: not given
Notes: 8-mer, flanks averaged, mean of 2 arrays, mostly near background
Relative to: not given
Direction: higher = stronger binding
Target sequence (chain): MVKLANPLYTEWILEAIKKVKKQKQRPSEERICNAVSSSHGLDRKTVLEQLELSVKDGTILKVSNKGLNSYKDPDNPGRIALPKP
`AATACTCT` gave an E-score of -0.165.
The E-score of `ATGGGCGA` is reported as -0.0998.
For `AGCTACTC`, the E-score was -0.139.
With `CCAGTAGG` the E-score was -0.102.
With `AGTGAGAC` the E-score was -0.156.
The E-score of `ACGGCGGA` is reported as 0.359.
The E-score of `GTCCTCTA` is reported as -0.12.
For `TCTACTAA`, the E-score was -0.0188.
`CAAACGCG` gave an E-score of 0.245.
For `CGGACGAC`, the E-score was 0.166.
The E-score of `CATCGAAA` is reported as -0.079.
The E-score of `ACGTGTGG` is reported as -0.237.
`GAAGCGTC` gave an E-score of 0.166.
For `ACACCCGG`, the E-score was 0.254.
`CAGACTCC` gave an E-score of -0.107.
With `CACGCATA` the E-score was 0.106.
For `ACTTAACG`, the E-score was 0.00709.
For `ATCCGATG`, the E-score was 0.0608.
`AGAGAGTG` has an E-score of -0.0929.
For `CCATGCTC`, the E-score was -0.209.
`AACGGACT` gave an E-score of 0.15.
The E-score of `AAGAACAG` is reported as -0.151.
`GTCCGCCA` has an E-score of 0.139.
The E-score of `GGGTTTTA` is reported as 0.134.

Some of these lines once more (set 3):
For `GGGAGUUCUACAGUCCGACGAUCUGGCCCUGGUGGUAUGCGGGGAGGAAGAGGUGGCCUCAUGGAUCGUGGUGGUCCCGGUGGAAUGUUCAGAGGUGGCCGUGGUGGAGACAGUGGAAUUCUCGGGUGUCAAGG`, the log2 enrichment was 0.124.
`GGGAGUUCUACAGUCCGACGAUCCCUCAAGUCCUGUGCUACACAUCGUAUGUACCGAAUCGGGGAGGGAGGGGAGGAAAGUAUUAUGUUACGCCGUUCGGAUCUGCACUUCCAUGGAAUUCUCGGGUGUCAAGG` has a log2 enrichment of 1.07.
`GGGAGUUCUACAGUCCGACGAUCUGGCCCUGGUGGCAUGCGGGGAGGAAGAGGUGGCCUCAUGGAUCGUGGUGGUCCCGGUGGAAUGUUCAGAGGUGGCCGUGGUGGAGACGGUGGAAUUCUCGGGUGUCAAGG` gave a log2 enrichment of 0.243.
`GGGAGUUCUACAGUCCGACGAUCUCAAGUCCUGUGCUACACAUCGUAUGUACCGAAUCGGAAAAAAAGGUGGUUUGGAAAGUAUUAUGUUACGCCGUUCGGAUCUGCACUUCCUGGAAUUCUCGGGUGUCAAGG` gave a log2 enrichment of -1.16.
